Published values collected from several papers.
Protocols differ between the studies behind these lines. Several values in a cell are separate wells, animals, samples, runs or records.
Target: Mitogen-activated protein kinase 9 (MAPK9, Homo sapiens, UniProt P45984)
Sequence of UniProt P45984 (whole entry, looked up): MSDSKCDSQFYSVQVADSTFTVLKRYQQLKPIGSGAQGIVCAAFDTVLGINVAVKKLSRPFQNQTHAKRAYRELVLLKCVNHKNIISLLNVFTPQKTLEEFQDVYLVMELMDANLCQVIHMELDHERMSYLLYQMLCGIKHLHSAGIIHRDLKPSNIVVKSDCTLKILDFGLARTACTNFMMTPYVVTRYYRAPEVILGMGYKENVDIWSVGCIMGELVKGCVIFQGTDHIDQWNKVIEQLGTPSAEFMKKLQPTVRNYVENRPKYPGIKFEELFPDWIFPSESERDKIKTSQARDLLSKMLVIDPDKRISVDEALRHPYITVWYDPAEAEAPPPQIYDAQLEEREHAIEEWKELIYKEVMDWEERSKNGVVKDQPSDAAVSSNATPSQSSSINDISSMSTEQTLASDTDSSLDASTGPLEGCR

Structure (SMILES) | test | setting | how to read | remaining activity
O=C=[N][Ru-4]123([n]4c5ccc(O)cc5c5c6c(c7cc(F)c[n+]1c7c54)C(=O)NC6=O)[S+]1CC[S+]2CC[S+]3CC1 (stereo not drawn) | enzyme activity | 100 nM, human enzyme, together with: 10 µM ATP | baseline: untreated | 98%
Cc1ccc(C)c(-c2ccc3nc(NC(=O)C4CCCCC4)nn3c2)c1 | enzyme activity, Dundee kinase panel | 10 µM |  | 94%
C#CCOC(=O)[C@@]1(C)C=C(C(=O)Nc2cccc(C(=O)Nc3ccc(C)c(Nc4nccc(-c5cccnc5)n4)c3)c2)C(=O)CC1 | enzyme activity, inhibitor | 0.0007527 µM, unit not given | baseline: vehicle | 1
Cc1cccc(-c2ccc3nc(NC(=O)C4CCCO4)nn3c2)c1 (stereo not drawn) | enzyme activity, Dundee kinase panel | 10 µM |  | 83%
Cc1cc(NC(=O)c2cccc(N)c2)ccc1Nc1nccc(-c2cccnc2)n1 | enzyme activity, inhibitor | 0.02032 µM, unit not given | baseline: vehicle | 1.01
COc1c(OCCCN2CCOCC2)ccc2c1N=C(NC(=O)c1cnc(N)nc1)N1CCN=C21 | kinase activity, inhibitor | 1 µM | baseline: untreated control | 110%
COCC12C(=O)NC3C4(C(OC)CC1O)C1CC5(O)C(OC)C(O)C(OC(C)=O)(C1C5OC(=O)c1ccccc1)C3(O)C(OC)C24 (stereo not drawn) | kinase activity, inhibitor, ProQinase kinase profiling | 25 µM | baseline: control | 116% and 118%
Nc1nc(Nc2ccccc2)sc1C(=O)c1ccccc1 | enzyme activity, inhibitor | 10 µM |  | 48%
COc1ccc(NC(=O)Nc2ccc3c(c2)C(=O)N(C(C)CO)CC(C)C(CN(C)Cc2ccc4c(c2)OCO4)O3)cc1 (stereo not drawn) | kinase activity, KinaseProfiler | 0.03 µM, species human | baseline: control | 99%

A few entries again:
Structure (SMILES) | test | setting | how to read | remaining activity
COCC12C(=O)NC3C4(C(OC)CC1O)C1CC5(O)C(OC)C(O)C(OC(C)=O)(C1C5OC(=O)c1ccccc1)C3(O)C(OC)C24 (stereo not drawn) | kinase activity, inhibitor, ProQinase kinase profiling | 25 µM | baseline: control | 116% and 118%
